{"data": "Results collected from several papers", "note": "Every numbered part comes from another study and shows a few of its results, in no order."}
{"data": "Block 1", "target": "Ras GTPase-activating protein-binding protein 1, RRM domain (G3BP1, Homo sapiens, UniProt Q13283)", "method": "RNA Bind-n-Seq", "molecule type": "RNA", "medium": "in vitro", "concentration": "1 µM", "setting": "whole 134-nt RNA, ends assumed", "together with": "150 mM KCl", "relative to": "input library", "reading": "higher = stronger binding", "UniProt Q13283, sequence (whole entry, looked up)": "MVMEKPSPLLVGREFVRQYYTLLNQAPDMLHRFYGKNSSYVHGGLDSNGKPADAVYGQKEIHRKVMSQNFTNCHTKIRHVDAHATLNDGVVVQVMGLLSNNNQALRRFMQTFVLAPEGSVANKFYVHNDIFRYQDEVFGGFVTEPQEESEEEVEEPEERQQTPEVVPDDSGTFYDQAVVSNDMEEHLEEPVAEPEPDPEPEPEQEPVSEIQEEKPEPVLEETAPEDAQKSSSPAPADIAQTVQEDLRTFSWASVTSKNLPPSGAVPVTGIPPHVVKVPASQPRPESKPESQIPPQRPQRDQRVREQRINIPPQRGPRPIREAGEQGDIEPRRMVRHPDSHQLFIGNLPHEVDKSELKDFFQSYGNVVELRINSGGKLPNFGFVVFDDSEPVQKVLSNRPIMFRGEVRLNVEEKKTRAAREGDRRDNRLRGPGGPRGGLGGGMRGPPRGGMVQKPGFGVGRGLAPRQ"}
{"Strand": "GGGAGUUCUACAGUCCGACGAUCGUCCUGUGCUACACAUCGUAUGUACCGAAUCGGGUUUUGGGGUUUUGGGGUUUUGGGGAAAGUAUUAUGUUACGCCGUUCGGAUCUGCACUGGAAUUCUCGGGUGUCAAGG", "log2 enrichment": 0.401}
{"Strand": "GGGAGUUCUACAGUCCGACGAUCGUCCUGUGCUACACAUCGUAUGUACCGAAUCGGGGUGGGGAAAGGGGAAAAAAAGGGGAAAGUAUUAUGUUACGCCGUUCGGAUCUGCACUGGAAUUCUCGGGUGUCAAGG", "log2 enrichment": 0.747}
{"Strand": "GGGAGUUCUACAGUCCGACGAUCUUACGAUUAUAUCACCCGGACACACAUCAUGCUUAAGAUUCAACUGGGAGCAUACCAGGGAUGCUCUCUAACGUAAUCAAGGGAAGGUUCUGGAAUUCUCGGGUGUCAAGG", "log2 enrichment": -0.339}
{"Strand": "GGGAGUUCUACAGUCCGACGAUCCACAGACAACACGCACCCACACAGACACAGAGGGAAGGGGUUGGGAUGGGGACAGGGUGCACAGCACGGCGGGGUAGGACCCCAGCCCCUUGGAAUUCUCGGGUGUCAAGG", "log2 enrichment": -0.518}
{"Strand": "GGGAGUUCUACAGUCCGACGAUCCUGUGCUACACAUCGUAUGUACCGAAUCGGGGAAAAAAAGGGGUUUUUUUGGGGAAAGGGGAAAGUAUUAUGUUACGCCGUUCGGAUCUGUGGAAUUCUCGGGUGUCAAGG", "log2 enrichment": 0.579}
{"Strand": "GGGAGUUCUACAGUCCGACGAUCUCCUGUGCUACACAUCGUAUGUACCGAAUCGGGUUUUUGGGGUUUUUGGGGUUUUUGGGAAAGUAUUAUGUUACGCCGUUCGGAUCUGCAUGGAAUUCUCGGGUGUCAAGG", "log2 enrichment": 0.119}
{"Strand": "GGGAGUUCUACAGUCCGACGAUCCUGUGCUACACAUCGUAUGUACCGAAUCGGGGAAAAAAAGGGAAAAAAAGGAAAAAAAGGGGAAAGUAUUAUGUUACGCCGUUCGGAUCUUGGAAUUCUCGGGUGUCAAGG", "log2 enrichment": 0.116}
{"Strand": "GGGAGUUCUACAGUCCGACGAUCGCAGGAAGUAAAAACAAAUGGAAAUGCUUCGGAUAGUGGCAGGGGUGGGGGUUGCUAAGGAAAGGGUGGGAUGGGAGUUGGUAAAGAGUUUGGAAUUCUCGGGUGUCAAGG", "log2 enrichment": 1.39}
{"Strand": "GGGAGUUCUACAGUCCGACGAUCGUCCUGUGCUACACAUCGUAUGUACCGAAUCGGCCCCCCGGCCCCCCGGGGCCCCCCGGAAAGUAUUAUGUUACGCCGUUCGGAUCUGCAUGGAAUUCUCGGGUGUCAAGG", "log2 enrichment": -0.385}
{"Strand": "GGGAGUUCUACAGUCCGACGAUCCCUGUGCUACACAUCGUAUGUACCGAAUCGGGGUUUGGGGAAAAAAAGGGGAAAAAGGGGAAAGUAUUAUGUUACGCCGUUCGGAUCUGCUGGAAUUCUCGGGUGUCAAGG", "log2 enrichment": 0.775}
{"Strand": "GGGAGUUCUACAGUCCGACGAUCCACAGACAACACGCACCCACACAGACACAGAGGGAAGGGGUUGGGAUGGGGACAGGGUGCACAGCAGGGCGGGGUCGGACCCCAGCCCCUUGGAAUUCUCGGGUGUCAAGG", "log2 enrichment": -0.242}
{"data": "Block 2", "target": "Centromere-binding protein 1, full length, N-terminal tag (CBF1, Saccharomyces cerevisiae, UniProt P17106, residues 1-351)", "method": "protein-binding microarray", "molecule type": "double-stranded DNA, one strand shown", "medium": "in vitro", "concentration": "0.8 µM", "setting": "whole 60-bp probe, no competitor", "reading": "higher = stronger binding", "UniProt P17106, sequence (whole entry, looked up)": "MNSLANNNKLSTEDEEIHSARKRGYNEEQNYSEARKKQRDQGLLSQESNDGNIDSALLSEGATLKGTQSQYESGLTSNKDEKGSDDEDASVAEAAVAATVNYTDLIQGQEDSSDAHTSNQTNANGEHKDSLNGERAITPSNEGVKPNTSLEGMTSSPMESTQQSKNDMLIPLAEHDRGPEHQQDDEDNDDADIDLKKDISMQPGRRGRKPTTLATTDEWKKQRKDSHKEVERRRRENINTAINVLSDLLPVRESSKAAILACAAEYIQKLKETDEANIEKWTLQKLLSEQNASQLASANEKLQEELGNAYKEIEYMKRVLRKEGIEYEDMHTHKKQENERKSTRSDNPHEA"}
{"Strand": "GAATCATCGGAAAATGACGTGGCTTGGAGCGCATAGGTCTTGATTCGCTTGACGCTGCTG", "fluorescence intensity": "492 a.u."}
{"Strand": "GAAATCAAGTGATAACACGTTTAAATGAAACAGTAGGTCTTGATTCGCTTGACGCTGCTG", "fluorescence intensity": "619 a.u."}
{"Strand": "CTAAATTGTTCGTGGCACATGAAAAAAAAAAAATTCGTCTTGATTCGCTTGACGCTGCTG", "fluorescence intensity": "692 a.u."}
{"Strand": "GAAGATAATAATAATCACGTTTATATCACGTGATAGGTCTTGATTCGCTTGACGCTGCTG", "fluorescence intensity": "22800 a.u."}
{"Strand": "GAATTGATGATTTCGCACGTGGGAAAAGTAATCTAGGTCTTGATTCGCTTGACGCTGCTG", "fluorescence intensity": "4560 a.u."}
{"Strand": "CTATCCATTTTCTCGCATGTGGCGGTTTTCAGTTTCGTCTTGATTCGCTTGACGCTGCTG", "fluorescence intensity": "650 a.u."}
{"Strand": "CTAACATATAATCAAAACGTGAGTTTCCTGTGGTTCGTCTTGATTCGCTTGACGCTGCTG", "fluorescence intensity": "651 a.u."}
{"data": "Block 3", "target": "Histone acetyltransferase KAT6A, both winged helices, GST fusion (KAT6A, Homo sapiens, UniProt Q92794, residues 1-181)", "method": "protein binding microarray", "molecule type": "double-stranded DNA, one strand shown", "medium": "in vitro", "concentration": "not given", "setting": "8-mer, flanks averaged, mean of 2 arrays, mostly near background", "relative to": "not given", "reading": "higher = stronger binding", "Construct (chain)": "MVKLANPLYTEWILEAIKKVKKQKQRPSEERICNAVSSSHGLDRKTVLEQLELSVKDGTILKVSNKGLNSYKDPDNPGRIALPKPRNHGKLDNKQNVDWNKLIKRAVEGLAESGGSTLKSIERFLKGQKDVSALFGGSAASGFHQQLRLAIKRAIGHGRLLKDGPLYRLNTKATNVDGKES"}
{"Strand": "AACTCAGC", "E-score": 0.0507}
{"Strand": "ATCCCCAG", "E-score": -0.286}
{"Strand": "ATGCGTTA", "E-score": 0.0466}
{"Strand": "GAGCCAGA", "E-score": -0.177}
{"Strand": "CGGTGACC", "E-score": 0.0632}
{"Strand": "CCTTGCTA", "E-score": -0.186}
{"Strand": "GAGCCTAA", "E-score": -0.253}
{"Strand": "CCTTCAAA", "E-score": -0.0687}
{"Strand": "ATGGGCGC", "E-score": 0.141}
{"Strand": "CGCGTGCC", "E-score": 0.237}
{"data": "Further values, each from its own experiment"}
{"Molecule": "PhoQ, residues 284 288 289 292 302 303 TSTLRA", "target": "PhoP, residues 12 14 15 18 19 GQALL (Escherichia coli, UniProt P23836)", "test": "Sort-seq, measured: YFP reporter", "system": "E. coli", "conditions": "PhoQ-PhoP variant library, together with: 10 µM Mg2+", "how to read": "relative to: high Mg2+ state, higher = stronger signaling", "measurement": "fold induction", "result": 3.24}
{"note": "Excerpt of the above (block 2):"}
{"Strand": "GAATCATCGGAAAATGACGTGGCTTGGAGCGCATAGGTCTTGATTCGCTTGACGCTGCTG", "fluorescence intensity": "492 a.u."}
{"Strand": "GAAATCAAGTGATAACACGTTTAAATGAAACAGTAGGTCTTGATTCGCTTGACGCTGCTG", "fluorescence intensity": "619 a.u."}
{"Strand": "CTAAATTGTTCGTGGCACATGAAAAAAAAAAAATTCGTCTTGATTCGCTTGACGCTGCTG", "fluorescence intensity": "692 a.u."}
{"Strand": "GAAGATAATAATAATCACGTTTATATCACGTGATAGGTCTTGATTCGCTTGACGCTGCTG", "fluorescence intensity": "22800 a.u."}
{"Strand": "GAATTGATGATTTCGCACGTGGGAAAAGTAATCTAGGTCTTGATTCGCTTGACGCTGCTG", "fluorescence intensity": "4560 a.u."}
